Measurements from different studies.
Each line is one published result; not all experiments were run side by side. ± gives the spread as reported.

With `Nc1ncc(-c2cc(-c3cnn(CC(F)(F)F)c3)ncc2F)nc1C(=O)NC1CNCC(F)C1` (stereo not drawn) the remaining binding was 80% (FGFR4; KINOMEscan; 1 µM; reference: DMSO control).
For `CC[n+]1cccc2cc(/C=N/NC(=O)c3cccc(C(=O)N/N=C/c4ccc5c(ccc[n+]5CC)c4)n3)ccc21`, the ΔTm was 18.9 ± 0.9 °C (myc22 MYC G4-DNA parallel; FRET melting; 1 µM, K1 buffer, DNA 0.2 µM).
`CN1CCCNC(=O)c2cccc(c2)C(=O)NCCCN(C)CCCNc2cccc3c2C(=O)c2cccc(c2C3=O)NCCC1` — result for “log2 fold change”: -2.87 (SAS; RNA-Seq, refers to: MT-CYB mRNA; 1 µM, 6 h; reference: untreated cells).
For `COc1cc(O)ccc1CCC(c1ccc(O)cc1)c1cc2c(c(C)c1O)OC(c1ccc(O)cc1)CC2` (mixture of isomers), the amount was 739 ± 363 pg/mL blood (refers to: PGF2α; human whole blood; 30 µM, added: Escherichia coli).
The ΔTm of `C[n+]1ccc(/C=N/NC(=O)c2cncc(C(=O)N/N=C/c3cc[n+](C)cc3)n2)cc1` is reported as 4.4 ± 0.6 °C (myc22 MYC G4-DNA parallel; FRET melting; 1 µM, K1 buffer, DNA 0.2 µM).
The fold regulation of `CCN(CC)CC(=O)Nc1cccc(-n2cc(-c3ccc4ccc(-c5cn(-c6cccc(NC(=O)CN(CC)CC)c6)nn5)cc4c3)nn2)c1` is reported as -2.19 (RCC4; PCR angiogenesis array, refers to: NRP2; 5 x IC50, 6 h, normoxia; reference: untreated).
`C[n+]1cccc2cc(/C=N/NC(=O)C(=O)N/N=C/c3ccc4c(ccc[n+]4C)c3)ccc21` gave a ΔTm of 4.2 ± 1.1 °C (myc22 MYC G4-DNA parallel; FRET melting; 1 µM, K1 buffer, DNA 0.2 µM, added: ds26 10 µM).
`CC(C)c1ccc(N(C)c2ccc3c(c2)OCC[C@H]3CNc2cnccc2C(=O)O)cc1` gave an IC50 of ≥ 10 µM (SK-MEL-24; cell growth or viability, ATP luminescence; 7 days).
`COc1ccc(C(=O)CCc2cc(C(CCc3ccc(O)cc3OC)c3ccc(O)cc3)c(O)cc2OC)cc1` (racemic) gave an EPA level of 90000 ± 27200 pg/mL (human blood; 3 µM, added: A23187).
The ΔTm of `CC[n+]1cccc2cc(/C=N/NC(=O)c3ccc4ccc5ccc(C(=O)N/N=C/c6ccc7c(ccc[n+]7CC)c6)nc5c4n3)ccc21` is reported as 29.4 ± 0.5 °C (myc22 MYC G4-DNA parallel; FRET melting; 1 µM, K1 buffer, DNA 0.2 µM).
`C=C(NC(=O)c1csc(-c2nc3c(cc2O)-c2nc(cs2)C(=O)NC(C(C)O)C(=O)NC(=C(C)OC)c2nc(cs2)C(=O)NC2c4nc(cs4)C(=O)NC(COC(=O)c4c5c6c(cccc6n4O)COC(=O)C(OC4CC(C)(O)C(N(C)C)C(C)O4)C2OC5)c2nc-3cs2)n1)C(N)=O` (stereo not drawn) gave a bacterial load of 3.98 log CFU/g (Streptococcus pneumoniae; -25, immunocompromised mice, lung infection, lung; 2 mg/kg/day three times daily, 24 h post-dose).
With `O=C(N/N=C/c1cc[n+](Cc2ccccc2)c2ccccc12)c1cccc(C(=O)N/N=C/c2cc[n+](Cc3ccccc3)c3ccccc23)n1` the ΔTm was 19.5 ± 0.9 °C (myc22 MYC G4-DNA parallel; FRET melting; 1 µM, K1 buffer, DNA 0.2 µM).
`CNS(=O)(=O)Nc1nccc(Cc2c(C)c3ccc(Oc4ncccc4F)cc3oc2=O)c1F` has an IC50 of > 1 µM (HCC1569; cell viability; 7 days).
`c1ccc(-c2n[nH]cc2-c2ccnc3ccccc23)nc1` — result for “log2 fold change”: -0.26 (orf19.4575 Candida albicans; kinase binding, MIB/MS competition; Candida albicans lysate; 10 µM; reference: DMSO).
Under “log2 fold change”, `Cc1ncsc1-c1ccc(C(C)NC(=O)C2CC(O)CN2C(=O)C(NC(=O)CCCCCCCCCCN2CCCC(Nc3ncc(Cl)c(Nc4ccccc4S(=O)(=O)C(C)C)n3)C2)C(C)(C)C)cc1` (stereo not drawn) is recorded as -7 (22Rv1; RNA-seq, refers to: USP51 mRNA; concentration not given; reference: DMSO).
`COC1CN([C@H]2CC[C@H]([C@@]3(C)Oc4c(Cl)cc(C(=O)NCc5c(SC)cc(C)[nH]c5=O)c(C)c4O3)CC2)C1` — result for “log2 fold change”: 1.01 (RNA-seq, refers to: MPV17L mouse homolog; mouse, HT-1376 xenograft, whole blood; dose not given; reference: vehicle).
With `CC(O)CNCC(C)O.O=C(O)C(Cl)Cl` (stereo not drawn) the herbicidal inhibition was 0% (Eleusine indica; 15 mg/mL, 21 days, pre-emergence, greenhouse).
`C=CC(=O)N1[C@H](c2ccc3c(c2)OCO3)c2[nH]c3ccccc3c2C[C@@H]1C(=O)N1CCN(C)CC1` gave a relative co-enrichment of 116% (human cyclin E1 N112C-3xFLAG:CDK2; co-IP with TMT proteomics, refers to: CKS1B; concentration not given, P61024; reference: wild type DMSO).
For `C[n+]1ccc(/C=N/NC(=O)c2ccc3ccc(C(=O)N/N=C/c4cc[n+](C)c5ccccc45)nc3n2)c2ccccc21`, the ΔTm was 23 ± 0.6 °C (myc22 MYC G4-DNA parallel; FRET melting; 1 µM, K1 buffer, DNA 0.2 µM, added: ds26 10 µM).
`C=CC(=O)Nc1cccc(Cn2ncc3cnc(Nc4cnn(CCOC)c4)nc32)c1` — result for “percent of control”: 54% (HPK1 human; binding, KINOMEscan; 100 nM; lower = stronger binding).
`C[n+]1cccc2cc(/C=N/NC(=O)c3ccc4ccc(C(=O)N/N=C/c5ccc6c(ccc[n+]6C)c5)nc4n3)ccc21` has a ΔTm of 20 ± 0.2 °C (myc22 MYC G4-DNA parallel; FRET melting; 1 µM, K1 buffer, DNA 0.2 µM).
With `CN1CCC[C@]1(C)/C=C/S(=O)(=O)NC(=O)Nc1c2c(cc3c1CCC3)CCC2` the IL-18 inhibition was 93.9% (human, whole blood ex vivo; 100 mg twice daily, day 14, 6 h, multiple ascending dose, added: LPS and ATP).
With `C[n+]1ccc(/C=N/NC(=O)c2cc(C(=O)N/N=C/c3cc[n+](C)cc3)ncn2)cc1` the ΔTm was 3.4 ± 0.3 °C (myc22 MYC G4-DNA parallel; FRET melting; 1 µM, K1 buffer, DNA 0.2 µM, added: ds26 10 µM).
With `CCCCNCCO.O=C(O)C(Cl)Cl` the herbicidal inhibition was 0% (Eleusine indica; 15 mg/mL, 21 days, pre-emergence, greenhouse).

A few entries again:
`CC(C)c1ccc(N(C)c2ccc3c(c2)OCC[C@H]3CNc2cnccc2C(=O)O)cc1` gave an IC50 of ≥ 10 µM (SK-MEL-24; cell growth or viability, ATP luminescence; 7 days).
`COc1ccc(C(=O)CCc2cc(C(CCc3ccc(O)cc3OC)c3ccc(O)cc3)c(O)cc2OC)cc1` (racemic) gave an EPA level of 90000 ± 27200 pg/mL (human blood; 3 µM, added: A23187).
The ΔTm of `CC[n+]1cccc2cc(/C=N/NC(=O)c3ccc4ccc5ccc(C(=O)N/N=C/c6ccc7c(ccc[n+]7CC)c6)nc5c4n3)ccc21` is reported as 29.4 ± 0.5 °C (myc22 MYC G4-DNA parallel; FRET melting; 1 µM, K1 buffer, DNA 0.2 µM).
`C=C(NC(=O)c1csc(-c2nc3c(cc2O)-c2nc(cs2)C(=O)NC(C(C)O)C(=O)NC(=C(C)OC)c2nc(cs2)C(=O)NC2c4nc(cs4)C(=O)NC(COC(=O)c4c5c6c(cccc6n4O)COC(=O)C(OC4CC(C)(O)C(N(C)C)C(C)O4)C2OC5)c2nc-3cs2)n1)C(N)=O` (stereo not drawn) gave a bacterial load of 3.98 log CFU/g (Streptococcus pneumoniae; -25, immunocompromised mice, lung infection, lung; 2 mg/kg/day three times daily, 24 h post-dose).
